Results gathered from unrelated publications.
Each line is one published result; not all experiments were run side by side.
Organism: Pseudomonas aeruginosa

CC[C@H](C)[C@H](NC(=O)[C@@H](CCCNC(=N)N)NC(=O)[C@H](CCCNC(=N)N)NC(=O)[C@H](CC(=O)O)NC(=O)[C@H](Cc1c[nH]c2ccccc12)NC(=O)[C@H](CCCNC(=N)N)NC(=O)[C@@H]1CCCN1C(=O)[C@H](CCCNC(=N)N)NC(=O)[C@@H]1CCCN1C(=O)[C@H](CC(C)C)NC(=O)[C@H](Cc1ccc(O)cc1)NC(=O)[C@@H]1CCCN1C(=O)[C@@H]1CCCN1C(=O)[C@H](CCCCN)NC(=O)[C@H](CC(=O)O)NC(=O)[C@@H](N)C(C)C)C(=O)N[C@@H](Cc1ccc(O)cc1)C(=O)N[C@@H](CC(N)=O)C(=O)N[C@H](CCCNC(=N)N)C(N)=O  MIC (broth microdilution; DSM 1117; 18 h, 37 °C, 25% MHB2): > 128 µg/mL
CC[C@H](C)[C@H](NC(=O)[C@H](CCCCN)NC(=O)[C@H](CCCCN)NC(=O)[C@H](Cc1ccccc1)NC(=O)[C@H](Cc1ccccc1)NC(=O)[C@H](CCCCN)NC(=O)[C@H](CCCCN)NC(=O)[C@H](Cc1ccccc1)NC(=O)[C@H](CCCNC(=N)N)NC(=O)[C@@H](N)CCCCN)C(=O)N[C@@H](CCCCN)C(=O)N[C@@H](CCCCN)C(=O)N[C@@H](CO)C(=O)N[C@H](C(=O)N[C@@H](CCCCN)C(=O)N[C@@H](CCCCN)C(=O)N[C@@H](CCCNC(=N)N)C(=O)N[C@H](C(=O)N[C@@H](CCCCN)C(=O)N[C@@H](CCCCN)C(=O)N[C@@H](CC(C)C)C(=O)N[C@@H](Cc1ccccc1)C(=O)N[C@@H](CCCCN)C(=O)N[C@@H](CCCCN)C(=O)N1CCC[C@H]1C(=O)N[C@@H](CCCNC(=N)N)C(=O)N[C@H](C(=O)N[C@H](C(=O)N1CCC[C@H]1C(=O)N[C@H](C(=O)N[C@@H](CO)C(=O)N[C@H](C(=O)N1CCC[C@H]1C(=O)N[C@@H](Cc1ccccc1)C(=O)O)[C@@H](C)CC)[C@@H](C)CC)[C@@H](C)CC)C(C)C)C(C)C)C(C)C  MIC (P1; 20 h, with: 100 mM NaCl): 4 µg/mL
CC[C@H](C)[C@H](NC(=O)[C@@H](CCCNC(=N)N)NC(=O)[C@H](CCCNC(=N)N)NC(=O)[C@@H]1CCCN1C(=O)[C@@H]1CCCN1C(=O)[C@H](CCCCNC(=N)N)NC(=O)[C@@H]1CCCN1C(=O)[C@H](CCCNC(=N)N)NC(=O)[C@@H]1CCCN1C(=O)[C@H](CC(C)C)NC(=O)[C@H](Cc1ccc(O)cc1)NC(=O)[C@@H]1CCCN1C(=O)[C@@H]1CCCN1C(=O)[C@H](CCCCN)NC(=O)[C@H](CC(=O)O)NC(=O)[C@@H](N)C(C)C)C(=O)N[C@@H](Cc1ccc(O)cc1)C(=O)N[C@@H](CC(N)=O)C(=O)N[C@H](CCCNC(=N)N)C(N)=O  MIC (broth microdilution; DSM 1117; 18 h, 37 °C, 25% MHB2): 64 µg/mL
C#CCOc1ccc(CN[C@@]2(C)C[C@H](O[C@H]3[C@H](Oc4c5cc6cc4Oc4ccc(cc4Cl)[C@@H](O)[C@@H](NC(=O)[C@@H](CC(C)C)NC)C(=O)N[C@@H](CC(N)=O)C(=O)N[C@H]6C(=O)N[C@H]4C(=O)N[C@H](C(=O)N[C@H](C(=O)NCC(N)=O)c6cc(O)cc(O)c6-c6cc4ccc6O)[C@H](O)c4ccc(c(Cl)c4)O5)O[C@H](CO)[C@@H](O)[C@@H]3O)O[C@@H](C)[C@H]2O)cc1OC  MIC (broth microdilution; ATCC 35218, cation-adjusted Mueller-Hinton broth): 19 µM
CC(C)C[C@H](NC(=O)[C@H](CC(C)C)NC(=O)[C@H](CCCCN)NC(=O)[C@H](Cc1ccccc1)NC(=O)[C@@H](NC(=O)[C@H](CCCNC(=N)N)NC(=O)[C@@H](N)CCCCN)C(C)C)C(=O)N[C@@H](CCCCN)C(=O)N[C@@H](CCCNC(=N)N)C(=O)N[C@@H](Cc1ccc(O)cc1)C(=O)N[C@@H](Cc1c[nH]c2ccccc12)C(=O)N[C@@H](CCCNC(=N)N)C(=O)N[C@@H](CCC(N)=O)C(=O)N[C@@H](CC(C)C)C(=O)N[C@@H](CCCCN)C(=O)N[C@@H](CCCCN)C(=O)N1CCC[C@H]1C(=O)N[C@H](C(=O)N[C@@H](CCCNC(=N)N)C(=O)NCCOCCOCC(=O)O)C(C)C  MIC (ATCC 10145, GFP-expressing; 28 h): 3.2 µM
C#CCOc1ccc(CN[C@@]2(C)C[C@H](O[C@H]3[C@H](Oc4c5cc6cc4Oc4ccc(cc4Cl)[C@@H](O)[C@@H](NC(=O)[C@@H](CC(C)C)NC)C(=O)N[C@@H](CC(N)=O)C(=O)N[C@H]6C(=O)N[C@H]4C(=O)N[C@H](C(=O)N[C@H](C(=O)O)c6cc(O)cc(O)c6-c6cc4ccc6O)[C@H](O)c4ccc(c(Cl)c4)O5)O[C@H](CO)[C@@H](O)[C@@H]3O)O[C@@H](C)[C@H]2O)cc1OC  MIC (broth microdilution; ATCC 17978, cation-adjusted Mueller-Hinton broth): > 79 µM
CCCCCCCC(=O)N[C@@H](CCN)C(=O)N[C@H](C(=O)N[C@@H](CCN)C(=O)N[C@H]1CCNC(=O)[C@H]([C@@H](C)O)NC(=O)[C@H](CCN)NC(=O)[C@H](CCN)NC(=O)[C@H](Cc2cccc(F)c2)NC(=O)[C@@H](CC(C)C)NC(=O)[C@H](CCN)NC1=O)[C@@H](C)O  MIC (broth microdilution; PAO1, colistin-susceptible): 0.25 to 0.5 µg/mL
CCn1c(-c2ccc(Br)cc2)c(-c2ccc(Br)cc2)n(CC)c1=[Se]  MIC (broth microdilution; carbapenem-resistant BAA-2108; 24 h): > 40 µM
CN[C@H](CC(C)C)C(=O)N[C@H]1C(=O)N[C@@H](CC(N)=O)C(=O)N[C@H]2C(=O)N[C@H]3C(=O)N[C@H](C(=O)N[C@H](C(=O)O)c4cc(O)cc(O)c4-c4cc3ccc4O)[C@H](O)c3ccc(c(Cl)c3)Oc3cc2cc(c3O[C@@H]2O[C@H](CO)[C@@H](O)[C@H](O)[C@H]2O[C@H]2C[C@](C)(NCc3ccc(OCc4cn(CCCCC(=O)N[C@H](C(=O)N[C@@H](CCN)C(=O)N[C@H]5CCNC(=O)[C@H]([C@@H](C)O)NC(=O)[C@H](CCN)NC(=O)[C@H](CCN)NC(=O)[C@H](CC(C)C)NC(=O)[C@@H](CC(C)C)NC(=O)[C@H](CCN)NC5=O)[C@@H](C)O)nn4)c(OC)c3)[C@H](O)[C@H](C)O2)Oc2ccc(cc2Cl)[C@H]1O  MIC (broth microdilution; ATCC 27736, cation-adjusted Mueller-Hinton broth): 6 µM
CC[C@H](C)[C@H](NC(=O)[C@H](CCCCN)NC(=O)[C@@H](NC(=O)[C@@H](NC(=O)[C@H](CC(C)C)NC(=O)[C@H](CCCNC(=N)N)NC(=O)[C@@H](NC(=O)[C@H](CC(C)C)NC(=O)[C@H](CCCNC(=N)N)NC(=O)CNC(=O)[C@H](Cc1ccccc1)NC(=O)[C@@H](N)CCCNC(=N)N)[C@@H](C)CC)[C@@H](C)CC)C(C)C)C(=O)N[C@@H](C)C(=O)N[C@@H](CCCNC(=N)N)C(=O)N[C@@H](CCCNC(=N)N)C(=O)N[C@@H](C)C(=O)N[C@@H](Cc1c[nH]cn1)C(=O)N[C@@H](CCCNC(=N)N)C(=O)N[C@@H](C)C(=O)N[C@@H](CCCNC(=N)N)C(=O)N[C@@H](CO)C(=O)N[C@@H](C)C(=O)N[C@H](C(=O)N[C@@H](CCCCN)C(=O)N[C@@H](C)C(=O)N[C@@H](C)C(=O)N[C@@H](CO)C(=O)N[C@@H](CC(N)=O)C(=O)N[C@H](C(=O)N[C@@H](C)C(=O)N[C@@H](C)C(=O)N[C@@H](CC(C)C)C(=O)N[C@@H](C)C(=O)N[C@@H](Cc1c[nH]cn1)C(=O)NCC(=O)N[C@@H](C)C(=O)O)C(C)C)C(C)C  MIC (bacterial growth, broth microdilution; cation-adjusted Mueller Hinton broth; 18 h, 37 °C): 1.03 µM

For quick reference, copied from above:
CC(C)C[C@H](NC(=O)[C@H](CC(C)C)NC(=O)[C@H](CCCCN)NC(=O)[C@H](Cc1ccccc1)NC(=O)[C@@H](NC(=O)[C@H](CCCNC(=N)N)NC(=O)[C@@H](N)CCCCN)C(C)C)C(=O)N[C@@H](CCCCN)C(=O)N[C@@H](CCCNC(=N)N)C(=O)N[C@@H](Cc1ccc(O)cc1)C(=O)N[C@@H](Cc1c[nH]c2ccccc12)C(=O)N[C@@H](CCCNC(=N)N)C(=O)N[C@@H](CCC(N)=O)C(=O)N[C@@H](CC(C)C)C(=O)N[C@@H](CCCCN)C(=O)N[C@@H](CCCCN)C(=O)N1CCC[C@H]1C(=O)N[C@H](C(=O)N[C@@H](CCCNC(=N)N)C(=O)NCCOCCOCC(=O)O)C(C)C  MIC (ATCC 10145, GFP-expressing; 28 h): 3.2 µM
